{"data": "Assay results from different studies", "note": "Numbered parts are unrelated; each lists some results of a single study. Substitutions count along the parent as printed."}
{"data": "Block 1", "target": "CCNE1, cyclin fold, Cln2 fusion (human)", "method": "yeast growth competition, sequencing", "medium": "yeast", "setting": "weak parent motif", "baseline": "not given", "reading": "higher = stronger binding", "parent": "RB1 docking peptide (human); PKPLKKLRFDIEG"}
{"Variant": "PKPPKKLRFDIEG [L4P]", "normalised enrichment score": 0.373}
{"Variant": "PKPGKKLRFDIEG [L4G]", "normalised enrichment score": 0.526}
{"Variant": "PKQLKKLRFDIEG [P3Q]", "normalised enrichment score": -0.00153}
{"Variant": "PKPLKKLRFDIHG [E12H]", "normalised enrichment score": -0.48}
{"Variant": "FKPLKKLRFDIEG [P1F]", "normalised enrichment score": -0.207}
{"Variant": "PKPLKKFRFDIEG [L7F]", "normalised enrichment score": 0.0468}
{"Variant": "PKPLKKLRFDIEQ [G13Q]", "normalised enrichment score": 1.1}
{"data": "Block 2", "target": "ABI1, truncated, D143A, DHFR fusion (Arabidopsis thaliana)", "method": "DHFR PCA, deep sequencing", "medium": "yeast", "setting": "methotrexate growth selection, single substitutions", "added": "(+)-ABA 0.39 µM", "baseline": "wild-type fitted maximum", "reading": "higher = stronger binding", "parent": "PYL1, truncated, DHFR fusion (Arabidopsis thaliana); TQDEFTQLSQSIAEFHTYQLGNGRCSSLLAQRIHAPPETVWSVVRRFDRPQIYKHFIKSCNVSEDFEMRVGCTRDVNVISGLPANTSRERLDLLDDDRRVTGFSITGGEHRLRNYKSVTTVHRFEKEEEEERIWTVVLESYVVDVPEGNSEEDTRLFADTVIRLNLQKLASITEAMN; partner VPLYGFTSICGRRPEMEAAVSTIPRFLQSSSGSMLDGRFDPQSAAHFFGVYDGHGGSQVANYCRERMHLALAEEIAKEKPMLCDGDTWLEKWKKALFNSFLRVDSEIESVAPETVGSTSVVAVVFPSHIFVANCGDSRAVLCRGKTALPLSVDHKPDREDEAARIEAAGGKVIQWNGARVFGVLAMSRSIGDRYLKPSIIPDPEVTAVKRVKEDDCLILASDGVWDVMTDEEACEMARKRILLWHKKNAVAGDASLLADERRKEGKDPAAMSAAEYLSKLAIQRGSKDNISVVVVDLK"}
{"Variant": "N165E", "relative binding score [%]": 0.203}
{"Variant": "L29W", "relative binding score [%]": -4.05}
{"Variant": "L166D", "relative binding score [%]": 1.23}
{"Variant": "V43D", "relative binding score [%]": -12.3}
{"Variant": "S63E", "relative binding score [%]": 39.5}
{"Variant": "F47N", "relative binding score [%]": -15}
{"data": "Block 3", "target": "Sal-like protein 4, full length isoform A (SALL4, Homo sapiens, UniProt Q9UJQ4, residues 1-1053)", "method": "universal PBM", "molecule type": "double-stranded DNA, one strand shown", "medium": "in vitro", "tested at": "600 nM", "setting": "8-mer, flanks averaged, mean of replicates", "reading": "higher = stronger binding", "UniProt Q9UJQ4, sequence (whole entry, looked up)": "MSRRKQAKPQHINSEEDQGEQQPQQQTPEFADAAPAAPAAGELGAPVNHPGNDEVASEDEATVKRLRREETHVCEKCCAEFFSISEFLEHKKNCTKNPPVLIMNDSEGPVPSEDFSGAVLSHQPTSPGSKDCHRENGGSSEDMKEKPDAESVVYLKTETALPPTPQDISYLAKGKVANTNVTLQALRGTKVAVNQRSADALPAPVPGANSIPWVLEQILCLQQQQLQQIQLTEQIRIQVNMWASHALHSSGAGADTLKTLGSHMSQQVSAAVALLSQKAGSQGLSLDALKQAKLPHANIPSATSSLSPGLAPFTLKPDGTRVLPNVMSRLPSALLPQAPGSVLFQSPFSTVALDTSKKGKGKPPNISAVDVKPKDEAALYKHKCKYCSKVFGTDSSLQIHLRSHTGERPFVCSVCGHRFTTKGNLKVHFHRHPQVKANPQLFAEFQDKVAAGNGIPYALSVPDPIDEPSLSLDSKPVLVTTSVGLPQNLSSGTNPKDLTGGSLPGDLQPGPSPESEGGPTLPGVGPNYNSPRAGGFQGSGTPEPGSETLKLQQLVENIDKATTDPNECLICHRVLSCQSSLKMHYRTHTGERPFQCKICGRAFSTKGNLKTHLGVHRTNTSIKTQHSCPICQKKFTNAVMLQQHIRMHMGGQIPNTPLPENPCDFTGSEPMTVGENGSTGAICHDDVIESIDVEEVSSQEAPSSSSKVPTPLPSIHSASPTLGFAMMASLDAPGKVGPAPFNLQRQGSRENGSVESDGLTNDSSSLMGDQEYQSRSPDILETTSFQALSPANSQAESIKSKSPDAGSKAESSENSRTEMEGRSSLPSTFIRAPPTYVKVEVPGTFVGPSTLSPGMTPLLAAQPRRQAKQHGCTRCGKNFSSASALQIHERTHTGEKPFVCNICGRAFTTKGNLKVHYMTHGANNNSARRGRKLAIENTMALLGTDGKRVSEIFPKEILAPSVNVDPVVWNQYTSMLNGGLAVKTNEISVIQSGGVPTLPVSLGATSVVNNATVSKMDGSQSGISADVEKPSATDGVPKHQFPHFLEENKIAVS"}
{"Strand": "CTGACACA", "E-score": 0.0104}
{"Strand": "AGAGTTAC", "E-score": 0.0354}
{"Strand": "CAACTGTA", "E-score": 0.156}
{"Strand": "AACAGACT", "E-score": 0.0818}
{"Strand": "GACTTACA", "E-score": 0.144}
{"Strand": "AAGGTCCT", "E-score": -0.0863}
{"Strand": "CATGAGCA", "E-score": -0.106}
{"Strand": "ACGGGACA", "E-score": -0.0896}
{"Strand": "CTCAGCGC", "E-score": -0.201}
{"Strand": "ATTGGCCA", "E-score": -0.12}
{"Strand": "AGGGAAAC", "E-score": -0.088}
{"Strand": "ATCATCTC", "E-score": 0.218}
{"data": "Mixed results"}
{"Substance": "PhoQ, residues 284 288 289 292 302 303 SLSLLA", "target": "PhoP, residues 12 14 15 18 19 AWHSL (Escherichia coli, UniProt P23836)", "assay": "Sort-seq, measured: YFP reporter", "test system": "E. coli", "setting": "PhoQ-PhoP variant library, added: 10 µM Mg2+", "how to read": "baseline: high Mg2+ state, higher = stronger signaling", "measurement": "fold induction", "value": 6.82}
